Experimental data collected from several papers.
± marks the error that the study gave.

| Structure (SMILES) | assay | system | setting | tissue uptake [%ID/g] |
| --- | --- | --- | --- | --- |
| O=C([O-])CN1CCN(CC(=O)[O-])CCN(CC(=O)[O-])CCN(CC(=O)[O-])CC1.[64Cu+2] | – | healthy athymic nude mice, stomach | intravenous, 24 h | 0.35 |
| O=C([O-])CN1CCN(CC(=O)[O-])CCN(CC(=O)NC[C@H]2CC[C@H](C(=O)N[C@H](Cc3cnc4ccccc4c3)C(=O)NCCCC[C@H](NC(=O)N[C@@H](CCC(=O)O)C(=O)O)C(=O)O)CC2)CCN(CC(=O)[O-])CC1.[64Cu+2] | ex vivo gamma counting | 22Rv1 tumour-bearing mice, tumor | intravenous, 0.74 MBq, 1 h | 13.1 ± 4.12 |
| NC12CNCCNCC(NCc3ccc(CNC(=O)CCCC(=O)NCc4ccc(-c5nncnn5)cc4)cc3)(CNCCNC1)CNCCNC2.[64Cu+2] | – | athymic nude mice, SW1222 xenograft, stomach with contents | 1 h, pretargeting with huA33-TCO, 24 h interval | 0.73 ± 0.19 |
| CCCC[C@H](NC(=O)CNC(=O)CNC(=O)CN1CCN(CC(=O)O)CCN(CC(=O)O)CC1)C(=O)N[C@H]1CC(=O)NCCCC[C@@H](C(N)=O)NC(=O)[C@H](Cc2c[nH]c3ccccc23)NC(=O)[C@H](CCCNC(=N)N)NC(=O)[C@@H](Cc2ccccc2)NC(=O)[C@H](Cc2c[nH]cn2)NC1=O [gallium-67 labelled] | – | female C57 mice, B16/F1 melanoma, brain | intravenous, 0.037 MBq, 0.5 h | 0.21 ± 0.01 |
| CCCC[C@@H]1NC(=O)[C@@H](NC(=O)[C@H](CCC(=O)O)NC(=O)CNC(=O)CN2CCN(CC(=O)O)CCN(CC(=O)O)CCN(CC(=O)O)CC2)CCCCNC(=O)C[C@@H](C(N)=O)NC(=O)[C@H](C(C)C)NC(=O)[C@@H]2CCCN2C(=O)[C@H](CCCNC(=N)N)NC(=O)CNC(=O)[C@H](Cc2c[nH]c3ccccc23)NC(=O)[C@H](CCCNC(=N)N)NC(=O)[C@@H](Cc2ccccc2)NC(=O)[C@H](Cc2c[nH]cn2)NC(=O)[C@H](CCC(=O)O)NC1=O [gallium-67 labelled] | – | C57 mice, B16/F1 flank melanoma, lung | intravenous, 2 h, with: blocking peptide 10 µg | 0.04 ± 0.03 |
| O=C([O-])c1cccc(CN(CCN(Cc2cn(Cc3ccccc3)nn2)Cc2cccc(C(=O)[O-])n2)Cc2cn(Cc3ccccc3)nn2)n1.[64Cu+2] | – | healthy athymic nude mice, spleen | intravenous, 15 min | 1.5 |
| N=C(N)NCCC[C@H](NC(=O)CON=C[C@H](F)[C@@H](O)[C@H](O)[C@H](O)CO)C(=O)NCC(=O)N[C@@H](CC(=O)O)C(=O)O [fluorine-18 labelled] | – | nude mice U-87 MG tumour, muscle | intravenous, 0.5 h | 0.27 ± 0.07 |
| O=C([O-])CN1CCN(CC(=O)[O-])CCN(CC(=O)NCCc2ccc3c(c2)C2C=CCC2C(c2cc4c(cc2Br)OCO4)N3)CCN(CC(=O)[O-])CC1.[111In+3] (stereo not shown) | – | mice with Hec50 tumour xenograft, uterus | 2 h, with: G-1 5 µg blocking | 0.31 ± 0.06 |
| CC(C)[C@H](NC(=O)[C@@H]1CCCN1C(=O)[C@H](CCCNC(=N)N)NC(=O)[C@H](CS)NC(=O)[C@H](Cc1c[nH]c2ccccc12)NC(=O)[C@H](CCCNC(=N)N)NC(=O)[C@@H](Cc1ccccc1)NC(=O)[C@H](Cc1c[nH]cn1)NC(=O)[C@H](CCC(=O)O)NC(=O)[C@H](CS)NC(=O)[C@H](CS)NC(=O)CNC(=O)[C@@H]1CC(=O)N[C@@H](CCCNC(=N)N)C(=O)NCC(=O)N[C@@H](CC(=O)O)C(=O)N[C@H](Cc2ccc(O)cc2)C(=O)N1)C(N)=O [technetium-99m labelled] | – | C57 mice B16/F1 melanoma female, tumor | iv, 2 h, with: NDP-MSH 10 µg co-injected | 2.57 ± 1.39 |
| CN1C(=O)[C@@H](Cc2ccc(O)c(I)c2)NC(=O)CNC(=O)[C@H](Cc2ccc3ccccc3c2)NC(=O)[C@H](CCCNC(=N)N)NC(=O)[C@H]1CCCNC(=O)c1ccc(CNC(=O)CN2CCN(CC(=O)O)CCN(CC(=O)O)CCN(CC(=O)O)CC2)cc1 [lutetium-177 labelled] | measured: 177Lu radioactivity | female CB-17 SCID mice, Daudi xenograft, skin | intravenous, 0.16 nmol per mouse, 96 h | 0.095 ± 0.008 |
